# Experimental data gathered from unrelated publications.
# ± gives the spread as reported.
SMILES,test,system,conditions,scale,quantity,value
O=c1nc(NO)ccn1[C@@H]1O[C@H](CO)[C@@H](O)[C@H]1O,,"male Wistar rats, plasma","oral, 30 mg/kg",relative to: CFA-arthritic over normal rats,AUC ratio,1.7 fold
N[C@H](COc1ccccc1C(F)(F)F)c1ccccc1,,male Sprague-Dawley rat,"oral, 25 mg/kg",,AUC,1010 ± 227 ng·h/mL
COc1cccc(-c2n[nH]c([S+]([O-])Cc3ccccn3)n2)c1OC (stereo not shown),,"Sprague-Dawley rat, male and female, plasma","oral, 100 mg/kg of parent drug",,AUC,498000 ng·h/mL
CC(=O)c1cnc(N)nc1N1CC[C@H]1c1nn2ccc(Cl)c2c(=O)n1-c1ccccc1,,"female Wistar rat collagen-induced arthritis, plasma","oral, 0.6 mg/kg once daily",,AUC,1960 ± 122 ng·h/mL
COc1cccc(-c2n[nH]c(SCc3ccccn3)n2)c1O,,"Sprague-Dawley rat, male and female, plasma","oral, 100 mg/kg of parent drug",,AUC,184 ng·h/mL
NCC(=O)NCC(=O)NCC(=O)NCC(=O)NCC(=O)NCC(=O)NCCCC[C@H](NC(=O)[C@@H]1CCCN1C(=O)[C@@H]1CSSCCC(=O)N[C@@H](Cc2ccc(O)cc2)C(=O)N[C@@H](Cc2ccccc2)C(=O)N[C@@H](CCCC(N)=O)C(=O)N[C@@H](CC(N)=O)C(=O)N1)C(=O)NCC(N)=O,,"Sprague Dawley rats, plasma","subcutaneous, 0.1 mg/kg",,AUC,1.34 ng·h/mL
O=C(O)/C=C/c1ccc(NC(=O)C2(NC(=O)c3ccc4c(C5CCCCC5)c5n(c4c3)CCOc3ccccc3-5)CCCC2)cc1,,rat,dose not given,,AUC,0.8 µM·h
CC(C)C[C@H](NC(=O)[C@H](CCCCN)NC(=O)CNC(=O)[C@H](CC(C)C)NC(=O)[C@@H](NC(=O)[C@@H]1CSSC[C@H](N)C(=O)N[C@@H](CO)C(=O)N[C@@H](CC(N)=O)C(=O)N[C@@H](CC(C)C)C(=O)N[C@@H](CO)C(=O)N[C@@H]([C@@H](C)O)C(=O)N1)C(C)C)C(=O)N[C@@H](CO)C(=O)N[C@@H](CCC(N)=O)C(=O)N[C@@H](CCC(=O)O)C(=O)N[C@@H](CC(C)C)C(=O)N[C@@H](Cc1c[nH]cn1)C(=O)N[C@@H](CCCCN)C(=O)N[C@@H](CC(C)C)C(=O)N[C@@H](CCC(N)=O)C(=O)N[C@H](C(=O)N[C@@H](Cc1ccc(O)cc1)C(=O)N1CCC[C@H]1C(=O)N[C@@H](CCCNC(=N)N)C(=O)N[C@H](C(=O)N[C@@H](CC(N)=O)C(=O)N[C@H](C(=O)NCC(=O)N[C@@H](CO)C(=O)NCC(=O)N[C@H](C(=O)N1CCC[C@H]1C(N)=O)[C@@H](C)O)[C@@H](C)O)[C@@H](C)O)[C@@H](C)O,ELISA,"hairless Sprague-Dawley rat, male, serum","subcutaneous, 3 µg, coating dissolved from microneedles",,AUC,6.72 ± 4.22 ng·h/mL
O=C(O)/C=C/c1ccc(NC(=O)C2(NC(=O)c3ccc4c(C5CCCCC5)c5n(c4c3)CCCc3ccccc3-5)CCCC2)cc1,,rat,dose not given,,AUC,0.3 µM·h
Cc1ncc2c(n1)CN(C(=O)Nc1nc(-c3cccs3)ccc1N)C2,,"Sprague-Dawley rat, male","oral, 60 mg/kg daily, day 14, 14-day toxicity study",,AUC,28700 ± 7570 ng·h/mL

# A few entries again:
SMILES,test,system,conditions,scale,quantity,value
COc1cccc(-c2n[nH]c(SCc3ccccn3)n2)c1O,,"Sprague-Dawley rat, male and female, plasma","oral, 100 mg/kg of parent drug",,AUC,184 ng·h/mL
CC(=O)c1cnc(N)nc1N1CC[C@H]1c1nn2ccc(Cl)c2c(=O)n1-c1ccccc1,,"female Wistar rat collagen-induced arthritis, plasma","oral, 0.6 mg/kg once daily",,AUC,1960 ± 122 ng·h/mL
